# Assay results of several laboratories.
# A part holds a random share of what one study measured.

# Study 1 — method: protein-binding microarray; form: double-stranded DNA, one strand shown; sample: in vitro; concentration: 250 nM; setting: 60-bp whole probe; added: salmon DNA 0.4 mg/ml; reference: random background probes; direction: higher = stronger binding; shared flanks, not repeated: GCCTAGCAC … GTCTTGATTCGCTTGACGCTGCTG
# Target: Interferon regulatory factor 5, full length, phosphomimetic (IRF5, Homo sapiens, UniProt Q13568-2, residues 1-514, K96S/S451D/S453D/S456D/S462D)
Strand,log fluorescence
GACGGTATCGGCATCGGGACGTGCTAG,1.41 z-score
GACGGACTGGGGAATCGGGACGTGCTA,-0.513 z-score
TTCTTTATGCACTCTTTACATGTGCTA,0.854 z-score
TTAGGAATGGGTTTCGGTTAGTGCTAG,8.73 z-score
GACGGTCACGGTATCGGGACGTGCTAG,0.437 z-score

# Study 2 — method: aptamer microarray, sandwich; form: DNA with 2'F-ANA; sample: in vitro; concentration: 200 nM; added: Cy3 exosite-II aptamer, 400 nM; direction: higher = stronger binding; strand: GGTTGGTGTGGTTGG
# Target: Prothrombin, mature alpha-thrombin (F2, Homo sapiens, UniProt P00734)
# Setting: whole 15-mer aptamer, many near background
Modification,mean fluorescence intensity
2'F-ANA at 1 2 3 4 5 6 8 10 11 12 13 15,56.9 a.u.
2'F-ANA at 2 6 11 12 15,468 a.u.
2'F-ANA at 3 4 6 7 10 11 13 14 15,166 a.u.
2'F-ANA at 2 3 4 6 10 12 13,243 a.u.
2'F-ANA at 5 10 13,44.3 a.u.
2'F-ANA at 4 5 6 7 8 9 11 12 13,80.7 a.u.

# Study 3 — method: protein-binding microarray; form: double-stranded DNA, one strand shown; sample: in vitro; concentration: 0.8 µM; setting: whole 60-bp probe, no competitor; direction: higher = stronger binding
# Target: Centromere-binding protein 1, full length, N-terminal tag (CBF1, Saccharomyces cerevisiae, UniProt P17106, residues 1-351)
# Sequence of UniProt P17106 (whole entry, looked up): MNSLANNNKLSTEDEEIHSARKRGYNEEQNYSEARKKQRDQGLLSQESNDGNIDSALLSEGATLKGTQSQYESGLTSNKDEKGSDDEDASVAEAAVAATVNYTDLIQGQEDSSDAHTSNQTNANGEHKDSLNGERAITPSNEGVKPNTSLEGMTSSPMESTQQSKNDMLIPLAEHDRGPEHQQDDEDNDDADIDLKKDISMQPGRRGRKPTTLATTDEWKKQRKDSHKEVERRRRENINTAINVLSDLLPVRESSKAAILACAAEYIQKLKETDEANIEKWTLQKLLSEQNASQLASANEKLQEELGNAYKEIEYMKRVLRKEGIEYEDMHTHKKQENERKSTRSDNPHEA
Strand,fluorescence intensity
GAATAGTAACGCCGTATCGTGATTAACGTATTATAGGTCTTGATTCGCTTGACGCTGCTG,666 a.u.
GAATAGTAGCCCTGACACGTTTTGAAATTCTTTTAGGTCTTGATTCGCTTGACGCTGCTG,579 a.u.
GAACTGCTGCATTGTCACGGGCTGGACATTTGGTAGGTCTTGATTCGCTTGACGCTGCTG,891 a.u.
TGTACGAAGCTATAAGGCACCACTATAGTAGTTAGGGTCTTGATTCGCTTGACGCTGCTG,502 a.u.

# Single results of other studies
Molecule,target,test,test system,conditions,how to read,measurement,value
"PhoQ, residues 284 288 289 292 302 303 AGCYAI","PhoP, residues 12 14 15 18 19 STWGI (Escherichia coli, UniProt P23836)","Sort-seq, item: YFP reporter",E. coli,"PhoQ-PhoP variant library, added: 10 µM Mg2+","reference: high Mg2+ state, higher = stronger signaling",fold induction,1.22
